Assay results from different studies.
± marks the error that the study gave.
Sequence of UniProt P08709 (whole entry, looked up): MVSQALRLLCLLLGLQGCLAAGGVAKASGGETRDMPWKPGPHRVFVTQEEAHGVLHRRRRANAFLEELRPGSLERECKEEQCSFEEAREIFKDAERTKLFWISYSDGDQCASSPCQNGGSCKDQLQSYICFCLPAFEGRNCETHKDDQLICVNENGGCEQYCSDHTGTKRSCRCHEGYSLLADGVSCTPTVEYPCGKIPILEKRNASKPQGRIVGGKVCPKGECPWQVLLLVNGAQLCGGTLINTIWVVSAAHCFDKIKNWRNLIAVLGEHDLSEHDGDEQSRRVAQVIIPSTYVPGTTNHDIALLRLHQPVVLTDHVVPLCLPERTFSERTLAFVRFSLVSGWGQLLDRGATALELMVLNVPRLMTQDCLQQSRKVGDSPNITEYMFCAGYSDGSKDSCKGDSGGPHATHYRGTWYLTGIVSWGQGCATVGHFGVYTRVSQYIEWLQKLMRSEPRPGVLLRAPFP
Sequence of UniProt P35232 (whole entry, looked up): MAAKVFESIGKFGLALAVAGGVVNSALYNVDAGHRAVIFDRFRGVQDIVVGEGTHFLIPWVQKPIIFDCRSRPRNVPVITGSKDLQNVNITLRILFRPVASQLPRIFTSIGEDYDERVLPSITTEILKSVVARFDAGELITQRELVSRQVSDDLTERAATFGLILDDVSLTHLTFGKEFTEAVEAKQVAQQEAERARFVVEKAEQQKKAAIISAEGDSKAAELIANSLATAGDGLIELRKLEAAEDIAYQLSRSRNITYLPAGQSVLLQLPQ

SMILES = O=c1ccc2ccccc2o1; tested on = HepG2; assay = measured: phospholipidosis; conditions = 24 h, phospholipidosis and steatosis panel; endpoint = point of departure; result = 674 µM
SMILES = O=[N+]([O-])c1ccc(N2CCC(NCCC(O)c3ccc(F)c4ccccc34)CC2)c(C(F)(F)F)c1 (stereo not shown); tested on = Salmonella typhimurium; assay = SOS/umu test; test system = TA1535/pSK1002; conditions = 0.004 mg/mL, 4 h, with S9, full range; endpoint = survival; result = 102%
SMILES = COc1cc(CCC[P+](c2ccccc2)(c2ccccc2)c2ccccc2)c(OC)c2c1OCO2.[I-]; tested on = HOP-62; assay = SRB; endpoint = GI50; result = -5.54 log M
SMILES = COc1ccc(-n2nc(C(C)=O)s/c2=N\N=C(/C)c2ccc(NC(C)=O)cc2)cc1; tested on = WI-38; conditions = 0.156 µM, 24 (unit not given); endpoint = viability; result = 22.9%
SMILES = COc1cc(Nc2ncc(F)c(Nc3ccc4c(n3)NC(=O)C(C)(C)O4)n2)cc(OC)c1OC; tested on = F7 (Homo sapiens, UniProt P08709); endpoint = IC50; result = > 10 µM
SMILES = O=C1c2c(O)c(=O)ccn2N([C@@H]2c3ccccc3SCc3c2ccc(F)c3F)[C@@H]2COCCN12; test system = BALB/c mice, plasma; conditions = oral, 15 mg/kg baloxavir marboxil, 6 h; endpoint = plasma concentration; result = 41 ng/mL
SMILES = C[C@H]1CN(c2n[nH]c3nc(N[C@H]4CC[C@H](NS(=O)(=O)CCC(F)(F)F)CC4)ncc23)CCO1; tested on = Prohibitin 1 (PHB1, Homo sapiens, UniProt P35232); assay = competitor, Kinobeads competition; test system = human cell extract; conditions = 0.032 µM; scale = relative to: vehicle; endpoint = relative abundance; result = 1.01
SMILES = CC[C@H](C)[C@@H]1NC(=O)[C@@H]2CCCN2C(=O)[C@H](CC(C)C)NC(=O)[C@H](CC(C)C)NC(=O)CNC(=O)[C@@H](NC(=O)[C@@H](NC(=O)[C@H](CC(=O)O)NC(=O)CNC(=O)[C@@H](NC(=O)[C@H](C)NC(=O)CNC(=O)[C@H](CCCCN)NC(=O)[C@H](CC(C)C)NC(=O)[C@H](CC(C)C)NC(=O)[C@H](CCCCN)NC(=O)CNC(=O)[C@@H](NC(=O)[C@@H](N)CC(C)C)C(C)C)C(C)C)C(C)C)CSSC[C@@H](C(=O)O)NC1=O; assay = RNA-seq, measured: Ccl6 mRNA; test system = mouse traumatic brain injury, frontal cortex and hippocampus; conditions = dose not given; scale = relative to: TBI plus compound vs TBI; endpoint = log2 fold change; result = -2.36
SMILES = CNC(=O)c1c(N(C)N=O)ncn1C; tested on = Escherichia coli; assay = mutagenicity, Ames plate incorporation; test system = WP2 uvrA pKM101; conditions = 50 µg/plate, without S9, methanol; endpoint = revertant colonies per plate; result = 121 ± 11
SMILES = CC(C)CC(=O)OC[C@H]1O[C@@](C#N)(c2ccc3c(N)ncnn23)[C@H](O)[C@@H]1O; tested on = Caco-2; assay = bidirectional permeability; conditions = 90 µM, 120 min; scale = basolateral to apical; endpoint = recovery; result = 101%
SMILES = CN(CC(C)(C)C)N=O; tested on = Escherichia coli; assay = mutagenicity, Ames plate incorporation; test system = WP2 uvrA pKM101; conditions = 50 µg/plate, without S9, methanol; endpoint = revertant colonies per plate; result = 106 ± 9
SMILES = Cc1ncc(OC[C@@]2(c3cccc(F)c3)C[C@H]2C(=O)Nc2ccc(F)cn2)c(C)n1; tested on = MDCK; conditions = 1 µM, 90 min, pH 6.5 apical, 7.4 basolateral, basolateral to apical; endpoint = mass recovery; result = 103 ± 3%
SMILES = CCN(CC)C(=O)[C@@H]1C=C2c3cccc4[nH]cc(c34)C[C@H]2N(C)C1; assay = measured: tendency to cry; test system = healthy volunteers; conditions = dose not given, 12 to 24 h; scale = relative to: placebo, direction not given; endpoint = List of Complaints score; result = 0

Excerpt of the above:
SMILES = CNC(=O)c1c(N(C)N=O)ncn1C; tested on = Escherichia coli; assay = mutagenicity, Ames plate incorporation; test system = WP2 uvrA pKM101; conditions = 50 µg/plate, without S9, methanol; endpoint = revertant colonies per plate; result = 121 ± 11
SMILES = CC(C)CC(=O)OC[C@H]1O[C@@](C#N)(c2ccc3c(N)ncnn23)[C@H](O)[C@@H]1O; tested on = Caco-2; assay = bidirectional permeability; conditions = 90 µM, 120 min; scale = basolateral to apical; endpoint = recovery; result = 101%
